# Measurements collected from several papers.
# Each line is one published result; not all experiments were run side by side. ± marks the error that the study gave.
# Organism: Salmonella typhimurium
Compound,test,system,conditions,how to read,endpoint,value
CN(CC(C)(C)C)N=O,"mutagenicity, Ames plate incorporation",TA1535,"2500 µg/plate, without S9, methanol",,revertant colonies per plate,33 ± 4
COc1cccc(-c2n[nH]c(SCc3ccccn3)n2)c1OC,"Ames test, plate incorporation",TA1537,"1.0 mg/plate, with rat liver S9",,revertant colonies per plate,8
CC(=O)N1CCC(C(=O)N2CCN3C(=O)c4cc(-c5ccccc5)ccc4NC(=O)C3C2)CC1 (stereo not drawn),,TA98,"15.8 µg/plate, together with: rat liver S9",relative to: vehicle,fold increase in revertants,1
O=[N+]([O-])c1ccc(N2CCC(NCCC(O)c3ccc(F)c4ccccc34)CC2)c(C(F)(F)F)c1 (stereo not drawn),SOS/umu test,TA1535/pSK1002,"0.008 mg/mL, 4 h, without S9, lower range",,survival,22.6%
CC(C)N(N=O)C(C)C,"mutagenicity, Ames plate incorporation",TA1535,"500 µg/plate, without S9, methanol",,revertant colonies per plate,32.7 ± 5
O=[N+]([O-])c1ccc(N2CCN(CCC(O)c3ccc(F)cc3)CC2)c(C(F)(F)F)c1 (stereo not drawn),"genotoxicity, SOS/umu test",TA1535/pSK1002,"0.008 mg/mL, 4 h, without S9, full range",,induction factor,1.3
Cc1cc(C(=O)NC(C)(C)COc2cccc3c2C(N)=NS(=O)(=O)N3)cc(C)n1,"Ames test, confirmatory",TA1535,"1000 µg/plate, together with: rat liver S9",relative to: solvent control,revertant ratio,0.9
COCCN(CCOC)N=O,"mutagenicity, Ames plate incorporation",TA1535,"2500 µg/plate, 3 d, without S9, methanol",,revertant colonies per plate,23 ± 4
Fc1ccc(C2=CCNCC2)cc1,SOS/umu test,"TA1535/pSK1002, TGA medium","1 mg/mL, 4 h, together with: 10% rat liver S9",,survival,40.4%
